Measured values from different studies.
Numbered parts are unrelated; each lists some results of a single study.

Sample 1
Target: Histone acetyltransferase KAT6A, winged helix 1, GST fusion (KAT6A, Homo sapiens, UniProt Q92794, residues 1-85)
Method: protein binding microarray
Molecule type: double-stranded DNA, one strand shown
Medium: in vitro
Tested at: not given
Setting: 8-mer, flanks averaged, mean of 2 arrays, mostly near background
Reference: not given
Reading: higher = stronger binding
Target sequence (chain): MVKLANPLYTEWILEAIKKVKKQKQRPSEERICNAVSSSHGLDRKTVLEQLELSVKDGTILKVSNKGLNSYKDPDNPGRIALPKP
For `ATACAAAC`, the E-score was -0.0677.
For `ATGGGCTC`, the E-score was -0.113.
With `CGATCCCC` the E-score was 0.102.
With `ACCCGCAT` the E-score was 0.226.
The E-score of `GCCATGAC` is reported as 0.00912.
`AAAAGCGA` has an E-score of 0.158.
For `TAGTTTGA`, the E-score was -0.104.
For `GATTATAC`, the E-score was -0.0253.
`ACGGTAAG` has an E-score of 0.201.
For `CGTAGACA`, the E-score was 0.0601.
`AAAGTACT` has an E-score of -0.00571.
For `CCAAAGTC`, the E-score was -0.233.
With `TCATGGAA` the E-score was -0.188.
With `CTTCATGA` the E-score was -0.0144.
With `AACCAGCC` the E-score was -0.0822.
For `TCCCTCGA`, the E-score was -0.00688.

Sample 2
Target: Fragile X messenger ribonucleoprotein 1, C-terminal low-complexity region (Fmr1, Mus musculus, UniProt P35922)
Method: RNA Bind-n-Seq
Molecule type: RNA
Medium: in vitro
Tested at: 200 nM
Setting: whole 134-nt RNA, ends assumed
Together with: 150 mM KCl
Reference: input library
Reading: higher = stronger binding
`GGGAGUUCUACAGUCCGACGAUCUAACUUUAGAGGAGGAUCUGAUGGAUAUGGCAGUGGACGUGGAUUUGGGGAUGGCUAUAAUGUGUAUGGAGGAGGACCUGGAGGUGGCAAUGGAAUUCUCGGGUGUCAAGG` gave a log2 enrichment of 0.221.
`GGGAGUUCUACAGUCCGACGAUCAAGUCCUGUGCUACACAUCGUAUGUACCGAAUCGGGGAAAGGGGAGGGGAAAGGGGAAAGUAUUAUGUUACGCCGUUCGGAUCUGCACUUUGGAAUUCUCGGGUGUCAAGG` gave a log2 enrichment of 0.457.
With `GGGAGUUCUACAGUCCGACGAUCUGUGCUACACAUCGUAUGUACCGAAUCGGGGAAAAAGGGGUUUUUUUGGGGAAAAAAAGGGGAAAGUAUUAUGUUACGCCGUUCGGAUCUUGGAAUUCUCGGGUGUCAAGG` the log2 enrichment was 0.112.
The log2 enrichment of `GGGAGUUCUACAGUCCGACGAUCUGGGAGGUGGAUUUUGUUUAUUUUUUUAGCUCAUUUCCAGGGGUGGGAAUUUUUUUUUAAUAUGUGUCAUGAACAAAGUUGUUUUUGAAAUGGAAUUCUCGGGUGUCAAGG` is reported as 0.379.
With `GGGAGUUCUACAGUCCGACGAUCUCCUGUGCUACACAUCGUAUGUACCGAAUCGGCCCCCCGGGGCCCCCCGGGCCCCCCGGGAAAGUAUUAUGUUACGCCGUUCGGAUCUGCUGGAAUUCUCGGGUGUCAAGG` the log2 enrichment was -0.677.
The log2 enrichment of `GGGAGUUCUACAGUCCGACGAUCCCUGUGCUACACAUCGUAUGUACCGAAUCGGUUUUUUUGGGUUUUUUUGGGUUUUUUUGGGAAAGUAUUAUGUUACGCCGUUCGGAUCUGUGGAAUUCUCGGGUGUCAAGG` is reported as -0.837.
With `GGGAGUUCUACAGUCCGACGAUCCUGUGCUACACAUCGUAUGUACCGAAUCGGGGAAAAAAAGGGAAAAAAAGGGAAAAAAAGGAAAGUAUUAUGUUACGCCGUUCGGAUCUGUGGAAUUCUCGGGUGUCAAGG` the log2 enrichment was -0.823.
With `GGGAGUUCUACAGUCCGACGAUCCACAGACAACACGCACCCACACAGACACAGAGGGAAGGGGUUGGGAUGAGGACAGGGUGCACAGCAGGGCGGGGUAGGACCCCAGCCCCUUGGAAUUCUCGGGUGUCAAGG` the log2 enrichment was 0.98.
With `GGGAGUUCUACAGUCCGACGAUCUGGCCCUGGUGGCAUGCGGGGAGGAAGAGGUGGCCUCAUGGAUCGUGGUGGUCCCGGUGGAAUGUUCAGUGGUGGCCGUGGUGGAGACAGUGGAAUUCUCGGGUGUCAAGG` the log2 enrichment was 0.153.
`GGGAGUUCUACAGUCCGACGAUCGGCCCGACCUGAUCGACUUUGAUAAGCUGAAGGACUCCAAUGCCCGGCACAACCUGGAGCACGCAUUCAAUGUGGCUGAGCGCCAGCUGGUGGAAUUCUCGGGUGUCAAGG` has a log2 enrichment of -0.187.

Sample 3
Target: PABPC1L2, full length, GST fusion (mouse, UniProt A0ABA7IW68)
Method: RNAcompete
Molecule type: RNA
Medium: in vitro
Tested at: 20 nM
Setting: 7-mer, probes averaged, single round
Reference: mean of 7-mers
Reading: higher = stronger binding
Residues (chain): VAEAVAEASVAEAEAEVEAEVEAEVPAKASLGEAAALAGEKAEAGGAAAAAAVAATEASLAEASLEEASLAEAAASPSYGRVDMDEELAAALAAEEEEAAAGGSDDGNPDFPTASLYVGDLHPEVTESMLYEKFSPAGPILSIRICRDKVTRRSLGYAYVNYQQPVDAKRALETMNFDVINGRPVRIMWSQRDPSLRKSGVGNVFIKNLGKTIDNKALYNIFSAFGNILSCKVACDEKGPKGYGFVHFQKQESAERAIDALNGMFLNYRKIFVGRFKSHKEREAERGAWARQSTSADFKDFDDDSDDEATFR
With `UAGCUCA` the 7-mer Z-score was -0.242.
For `GCGUAAC`, the 7-mer Z-score was -0.249.
`CGUCAUA` has a 7-mer Z-score of -0.166.
`GUUGCCC` has a 7-mer Z-score of -0.195.
The 7-mer Z-score of `CCACAUU` is reported as -0.157.
`CGUAUUU` gave a 7-mer Z-score of -0.331.
For `GACGGCU`, the 7-mer Z-score was 0.00798.
`UGCUCCU` gave a 7-mer Z-score of -0.382.
With `GGAACUU` the 7-mer Z-score was -0.0863.
`GCACAUA` gave a 7-mer Z-score of 0.00617.
`GUGUCUA` gave a 7-mer Z-score of -0.251.
For `GUGUACU`, the 7-mer Z-score was -0.22.
`GCGUGAU` has a 7-mer Z-score of -0.0536.
`AAUUGGU` gave a 7-mer Z-score of 0.215.
The 7-mer Z-score of `GAAAUCG` is reported as 0.28.
With `CCAUUUG` the 7-mer Z-score was -0.423.
`GUUCAAA` gave a 7-mer Z-score of -0.0699.
`AGUGGAU` has a 7-mer Z-score of 0.108.
With `AAACCCU` the 7-mer Z-score was 0.452.
`CGAUUGU` has a 7-mer Z-score of -0.219.
The 7-mer Z-score of `AACUUGC` is reported as -0.0663.
For `UUUUCAG`, the 7-mer Z-score was -0.222.
With `GUAGACG` the 7-mer Z-score was -0.0609.
`CACCACC` gave a 7-mer Z-score of -0.177.
`UCCAUAC` gave a 7-mer Z-score of -0.164.

Sample 4
Target: RNA binding protein fox-1 homolog 2, RRM domain, GST-SBP tag (RBFOX2, Homo sapiens, UniProt O43251-10, residues 100-194)
Method: RNA Bind-n-Seq
Molecule type: RNA
Medium: in vitro
Tested at: 365 nM
Setting: natural RNA segment, single round, ends assumed
Reference: no-protein control
Reading: higher = stronger binding
Residues (chain): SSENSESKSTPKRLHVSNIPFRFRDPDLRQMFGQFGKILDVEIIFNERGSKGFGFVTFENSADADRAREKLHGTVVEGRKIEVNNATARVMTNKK
For `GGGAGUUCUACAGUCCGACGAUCGGUUUCUGUCAUAAUGUGCUUUAUCUGAUUGACUCCAAACAUCCCGAAAUGUCACCUGCAGAUUUCUCGUGGGAACCAAUAUGUACAUGUUUGCAAUUAUGCUGUGAGAAUGGAAUUCUCGGGUGCCAA`, “RBNS enrichment (R)” read 0.606.
`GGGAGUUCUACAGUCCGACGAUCAGUAUCAGCGAGGAGGGGCUUGUCUCCUUCAGAGUUAACAUGGAGGACGAUUGGAGAAUCUCCCUGCCUGUUUGGACUUUGUAAUUAUUUUUUAGCCGUAAUUAAAGAAAUGGAAUUCUCGGGUGCCAA` — result for “RBNS enrichment (R)”: 1.28.
For `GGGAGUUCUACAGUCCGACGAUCACAACUAGAACACUCUGCCUUGGUCUCCUUAUCCAGUGCUCACCCACAGUAUGAAAUGGAUGCUUCCUCUGCCACCUGUAUACAGGGGCUUUUACUUUGCACACCUUCAUUGGAAUUCUCGGGUGCCAA`, “RBNS enrichment (R)” read 0.315.
For `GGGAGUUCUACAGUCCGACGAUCUGAGACUUCCCGCCGGCAGCUGUGCGCACCAAAGACUCGGGAGAACUGGAAAGGCUGUCUGGGGUCUUCUGACUGCAGGGGAAGGAUGUACUUUCCAAACAAAUGAUACAUGGAAUUCUCGGGUGCCAA`, “RBNS enrichment (R)” read 0.456.
For `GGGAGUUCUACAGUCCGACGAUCAUCUCAGCUCCCUGCAACUUCUGCCUCCCAGGUUCAAGCGAUUCUCCUGCCUUAGCCUCCUGAGUAGCUGGGUCAGCCACCAUGGCUGACUCAUUUUUUGUAUUUUUAGUUGGAAUUCUCGGGUGCCAA`, “RBNS enrichment (R)” read 0.973.
`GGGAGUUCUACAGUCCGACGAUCACAAAUCUCAGAACAGUCUGAAAUACCUUUGCCUGGAUACCUCUGGCUCCUUCAGCAGCUAGAGCUCAGUAUACUAAUGCCCUAUCUUAGUAGAGAUUUCAUAGCUAUUUUGGAAUUCUCGGGUGCCAA` — result for “RBNS enrichment (R)”: 0.347.
For `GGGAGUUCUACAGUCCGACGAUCAGCACAAACACUGAAAUGUCUACGUUUCAUUUUGGCAGUAGGGUGUGAAGCUGGGAGCAGAUCAUGUAUUUCCCGGAGACGUGGGACCUUGCUGGCAUGUCUCCUUCACAUGGAAUUCUCGGGUGCCAA`, “RBNS enrichment (R)” read 1.56.
`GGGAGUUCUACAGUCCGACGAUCGACCAAAUCUCACAGAAAAAUAGGCACUUUGGGCCAAAAGCUCUAAUGGAACAUUUUUAGUGGUGAUUUGGGGAAGGAAAGUUAAUGAGGUUUUUAAAAUAAGGUUUUCUUGGAAUUCUCGGGUGCCAA` — result for “RBNS enrichment (R)”: 0.434.
Under “RBNS enrichment (R)”, `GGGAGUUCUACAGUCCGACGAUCAAGACUGAUACAAGUAACCUCCCCUCUGCUUAGGUGUCACUUUCUCAGCAUAUCAAGUUUAGGCAGCAAGGGAAAGGAAUAUGGGUCAGUUCUCAAAUGUCAAUGUAGAUUGGAAUUCUCGGGUGCCAA` is recorded as 0.457.
`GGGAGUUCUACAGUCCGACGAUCCACAUUCACCUCCGACACGCCAUUUCACCUCCCUCGCCACACUGUUAGCCUUAGUGAUUGCAGUGAACACUGUUUACACACCGUGAAUCCAUUCCCACCAGUCCAUUUCAUGGAAUUCUCGGGUGCCAA`: “RBNS enrichment (R)” 0.804.
`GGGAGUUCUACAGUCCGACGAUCUGGCUGGCAGAAGAAAUAAGCCCAUGCAAGUGGAAGGGCUGCUUUGUCAGGAGGUUGUGGAAUUUCUUUCUUCUCCCCUUCUUCCCUCCCAAAAGCUUAGCUAUGUAUAAUGGAAUUCUCGGGUGCCAA` — result for “RBNS enrichment (R)”: 2.14.
`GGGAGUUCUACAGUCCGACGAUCAUAGUAGUUUCACAUCUGUAUUAUUUCCAAGUUUAAACUGUAAGCUCCUUGAGGGCAGGGAUUAUAACUGUAACAUUUGUAUCACUGCACUCGCUUUAGUGCCUAGUACAUGGAAUUCUCGGGUGCCAA`: “RBNS enrichment (R)” 0.375.
